Measured values from different studies.
Lines come from different studies, so protocols differ.
Method: steady-state kinetics
B1: enzyme D233E (Acetivibrio thermocellus, UniProt A3DJ38); chain MKLTIPELSLVVLIGSSGSGKSTFAKKHFKPTEVISSDFCRGLVSDDENDQTVTGAAFDVLHYIVSKRLQLGKLTVVDATNVQESARKPLIEIAKDYHCFPVAVVFNLPEKVCQERNKNRTDRQVEEYVIRKHTQQLKKSIKGLQREGFRYVYILNSPEEVEEVVFERQPLWNNKKDEHGPFDIIGDIHGCYDELKMLLEKLGYLIEEVEGGVGSGKYRVTHPEGRKVLFLGELVDRGPKITEVLKLVMGMVKSGIALCVPGNHDVKLLRKLNGRDVQITHGLDRTLEQLAKEPQEFIEEVKAFIDGLVSHYVLDDGKLVVAHAGMKEEFQGRGSGKVREFALYGETTGETDEYGLPVRYDWASDYRGKALVVYGHTPQAEVLKVNNTINIDTGCVFGGKLTAYRYPEREIVDVKALKTYYEPAKPFLPKEDMAERFEARTDNDILDINDVLGKKIITTRLMSSITIHEENSIAALEVMSRFAADPHWLIYLPPTMSPCETSKKEGMLEHPIEAFEYFRTRGVGKVVCEQKHMGSRAVVIVCKDSQVAEKRFGVLDGTAGICYTRTGRHFFDDMQLEAELIDRVRKVLDKSGFWGDFNTDWVCLDCELMPWSAKAQKLLEEQYSAVGISGRVVLDEAVKLLKQASLNKTVSFDVSRQTSGKNADINELLQRFTERSEMMQKYVEAYRKYCWPVNSIDDLKLAPFHILATEGKVHSDKNHIWHMDTIAKYCTQDDSLIMATNHILVDVTDAESVDKGIKWWEDLTASGGEGMVVKPYDFIVKNGRELLQPAVKCRGREYLRIIYGPEYTMDENIERLRNRAVGKKRSLALREFSLGMEALERFVRNEPLYRVHECVFGVLALESEPVDPRL
B2: enzyme N249W (Thermobifida fusca, UniProt Q47RK4); chain MTDVYILDAVRTPFGRYGGALSGIRPDDLAAHVLRALAERSPGLDPAAVDDVFFGDANGAGEDNRNVARMAALLAGWPTSVPGVTLNRLCGSGMESVIAANRAIAVGDASLAVAGGVESMSRAPWVLPKPAQGFPTGHETLYSTTLGWRMVNPAMPEQWTVSLGESTEQVAATYGISRAEQDAFALRSHERAARAWAEGVFDAEITQIPGAELERDESIRETSAEKLAALKPAFRPDGTITAGNASPLWDGAAALLIGDAAAAERVGREPLARIVSRGVAAVDPDVFGIGPVQAAEIALRRAGIGWDDLSVVELNEAFAAQSLACLKLWPDLDPEIVNPNGGAIAIGHPLGASGARIVGTLAHELHRRGGGWGLAAICIGVGQGLAVVLHR
B3: protein F432W (Streptomyces toyocaensis, UniProt Q8KLK7); chain MTTVLPPLEDTDGLWAALTEAAASVEKLLATLPEHGARSSAERAEIAAAHDAARALRVRFLDTHADAVYDRLTDHRRVHLRLAELVEAAATAFPGLVPTQQQLAVERSLPQAAKEGHEIDQGIFLRAVLRSPLAGPHLLDAMLRPTPRALELLPEFVRTGEVEMEAVHLERRDGVARLTMCRDDRLNAEDGQQVDDMETAVDLALLDPGVRVGLLRGGVMSHPRYRGKRVFSAGINLKYLSQGGISLVDFLMRRELGYIHKLVRGVLTNDDRPGWWHSPRIEKPWVAAVDGFAIGGGAQLLLVFDRVLASSDAYFSLPAAKEGIIPGAANLRLGRFAGPRVSRQVILEGRRIWAKEPEARLLVDEVVEPDELDAAIERSLTRLDGDAVLANRRMLNLADESPDGFRAYMAEFALMQALRLYGHDVIDKVGRWGGRPPA
B4: UGT84B1 (Arabidopsis thaliana, UniProt O22182); chain MGSSEGQETHVLMVTLPFQGHINPMLKLAKHLSLSSKNLHINLATIESARDLLSTVEKPRYPVDLVFFSDGLPKEDPKAPETLLKSLNKVGAMNLSKIIEEKRYSCIISSPFTPWVPAVAASHNISCAILWIQACGAYSVYYRYYMKTNSFPDLEDLNQTVELPALPLLEVRDLPSFMLPSGGAHFYNLMAEFADCLRYVKWVLVNSFYELESEIIESMADLKPVIPIGPLVSPFLLGDGEEETLDGKNLDFCKSDDCCMEWLDKQARSSVVYISFGSMLETLENQVETIAKALKNRGLPFLWVIRPKEKAQNVAVLQEMVKEGQGVVLEWSPQEKILSHEAISCFVTHCGWNSTMETVVAGVPVVAYPSWTDQPIDARLLVDVFGIGVRMRNDSVDGELKVEEVERCIEAVTEGPAAVDIRRRAAELKRVARLALAPGGSSTRNLDLFISDITIA
B5: sbnA (Staphylococcus aureus, UniProt A6QDA0); chain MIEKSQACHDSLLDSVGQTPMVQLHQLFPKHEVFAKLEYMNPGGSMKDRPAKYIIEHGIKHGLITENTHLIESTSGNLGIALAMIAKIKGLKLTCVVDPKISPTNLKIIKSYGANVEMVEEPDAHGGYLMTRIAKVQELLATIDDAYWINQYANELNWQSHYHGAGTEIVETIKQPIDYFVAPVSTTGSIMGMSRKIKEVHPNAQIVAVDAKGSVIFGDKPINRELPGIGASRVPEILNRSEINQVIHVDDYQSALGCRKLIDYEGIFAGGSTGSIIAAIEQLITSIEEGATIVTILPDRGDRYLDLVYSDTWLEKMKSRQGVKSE
B6: enzyme (Scutellaria baicalensis, UniProt A0A146AUI9); chain MDLVEVTLYAALFLLSAAFLLLIFAGDRSSPPGPFPLPIIGHLHLLGPKLHQSFHGLSQRHGPLMQIRLGSINCVVASTPELAKEFLKTNELVFSSRKHSTAIDIVTYNSSFAFSPYGPYWKYIKKLCTYELLGARNLHHFQPIRTFEVHTFLRLLMEKSESGESFNVTEELIKLTSNVMSNMMLGTRCSATDGEAEAARTVIREVTEIFGEFDAADIIWFCKNFDLQGIRKRSEDIQRRYDALLEKIITDREKLRRSHRGGEAKDFLDIFLDIMDSGNSEVKFSREHLKALILDFFTAGTDTTAISTEWAIAELMNNPKVLKKAQEEIQKVVGSCRLMDESDAPNLPYLEAIIKETFRLHPPIPMLARKSVSDCVIDGYNIPASTLLFVNIWSIGRNPECWDSPFSFRPERFFEKDNASIDIKGQHFQLLPFGTGRRGCPGMLLAIQELLLIIGTMIQCFDWELPEGSGPVDMTERAGLTAPRAEDLICRVSCRVDPKIVF
B7: Lxyl-p1-1 V91S (Lentinula edodes, UniProt G8GLN9); chain YFSGLGLGSERSIFRRDLNSTGDESNSTQWPAPLANGGKSWASAFKKAKSTVAEMTVEELANITSGVIGLCSGVTGAVTRLGIPELCLQDGPIGPRGVHGSSQFPAGLTVAATWDRTLMYARARGMGQEFHDQGVHIALAPVTGGPLGRTPLNGRGWEGTFADPYACGEASYQSVKGLTDAGVATVSKHWIAYEQETSRNLYIEFDGVSQADIQLPISSNVDDLTMHELYMWSFAEAVRAGTNHIMCSYNRINNTHSCNNAKGLNQLLKTELNFQGGVVSDWGGQWDSVLSAENGLDVGMPGEGFLGELGDFWGTTLADLINNGTVSEDLVRDKVVRLLTGYYYLGQDINPPPPFVYNTIGAPTLNATSGYRNVRKPGTAELIKEIGSASVTLLKNTGSLPLKHPQRIAVLGNDATYNVLGPNACGLANSACDIDNLNGTLTTGGGSGSALSPYTITPLEALQKRAIEDNAEIAAVVANSNTTTGAEDAIAALLPDADVTFVFLNRYSEEGADAPDFSLGGDGDNLMDLAVTYSSNVVVVIHTTGVVDIEKWADNPNVTAILVAYLPGQEAGNSLVPVLYGDVAPSGKLPWTWGKSIDDYVPNGVVYTDAYSPQSNFTEGVFIDYRWFDKMGITPRYEFGFGLSYTTFTYSNLIVDHGRWAKDYSSVMETAEPFAEWDGTNSLYDVIFTVFATITNTGNLTGSEVAQLYISIPGDNQPVRQLRGFDKIKDLPVGDSAVVTFPIRRKDVSSWSVVDQLWYVPNGDFLISVGGSSRDLPLNTTWTP
B8: nitrilase (Rhodococcus rhodochrous, UniProt A4LA85); chain MVEYTNTFKVAAVQAQPVWFDAAKTVDKTVSIIAEAARNGCELVAFPEVFIPGYPYHIWVDSPLAGMAKFAVRYHENSLTMDSPHVQRLLDAARDHNIAVVVGISERDGGSLYMTQLIIDADGQLVARRRKLKPTHVERSVYGEGNGSDISVYDMPFARLGALNCWEHFQTLTKYAMYSMHEQVHVASWPGMSLYQPEVPAFGVDAQLTATRMYALEGQTFVVCTTQVVTPEAHEFFCENEEQRKLIGRGGGFARIIGPDGRDLATPLAEDEEGILYADIDLSAITLAKQAADPVGHYSRPDVLSLNFNQRRTTPVNTPLSTIHATHTFVPQFGALDGVRELNGADEQRALPSTHSDETDRATASI
B9: EutE V13D (Escherichia coli, UniProt P77445); chain MNQQDIEQVVKADLLKMQSSDTPSAAVHEMGVFASLDDAVAAAKVAQQGLKSVAMRQLAIAAIREAGEKHARDLAELAVSETGMGRVEDKFAKNVAQARGTPGVECLSPQVLTGDNGLTLIENAPWGVVASVTPSTNPAATVINNAISLIAAGNSVIFAPHPAAKKVSQRAITLLNQAIVAAGGPENLLVTVANPDIETAQRLFKFPGIGLLVVTGGEAVVEAARKHTNKRLIAAGAGNPPVVVDETADLARAAQSIVKGASFDNNIICADEKVLIVVDSVADELMRLMEGQHAVKLTAEQAQQLQPVLLKNIDERGKGTVSRDWVGRDAGKIAAAIGLKVPQETRLLFVETTAEHPFAVTELMMPVLPVVRVANVADAIALAVKLEGGCHHTAAMHSRNIENMNQMANAIDTSIFVKNGPCIAGLGLGGEGWTTMTITTPTGEGVTSARTFVRLRRCVLVDAFRIV
B10: enzyme N488A (Limosilactobacillus reuteri, UniProt Q8GP32); chain SADTNIENNDSSTVQVTTGDNDIAVKSVTLGSGQVSAASDTTIRTSANANSASSAANTQNSNSQVASSAAITSSTSSAASSNNTDSKAAQENTNTAKNDDTQKAAPANESSEAKNEPAVNVNDSSAAKNDDQQSSKKNTTAKLNKDAENVVKKAGIDPNSLTDDQIKALNKMNFSKAAKSGTQMTYNDFQKIADTLIKQDGRYTVPFFKASEIKNMPAATTKDAQTNTIEPLDVWDSWPVQDVRTGQVANWNGYQLVIAMMGIPNQNDNHIYLLYNKYGDNELSHWKNVGPIFGYNSTAVSQEWSGSAVLNSDNSIQLFYTRVDTSDNNTNHQKIASATLYLTDNNGNVSLAQVANDHIVFEGDGYYYQTYDQWKATNKGADNIAMRDAHVIEDDNGDRYLVFEASTGLENYQGEDQIYNWLNYGGDDAFNIKSLFRILSNDDIKSRATWAAAAIGILKLNKDEKNPKVAELYSPLISAPMVSDEIERPNVVKLGNKYYLFAATRLNRGSNDDAWMNANYAVGDNVAMVGYVADSLTGSYKPLNDSGVVLTASVPANWRTATYSYYAVPVAGKDDQVLVTSYMTNRNGVAGKGMDSTWAPSFLLQINPDNTTTVLAKMTNQGDWIWDDSSENLDMIGDLDSAALPGERDKPVDWDLIGYGLKP
UniProt Q9SQ68, sequence (whole entry, looked up): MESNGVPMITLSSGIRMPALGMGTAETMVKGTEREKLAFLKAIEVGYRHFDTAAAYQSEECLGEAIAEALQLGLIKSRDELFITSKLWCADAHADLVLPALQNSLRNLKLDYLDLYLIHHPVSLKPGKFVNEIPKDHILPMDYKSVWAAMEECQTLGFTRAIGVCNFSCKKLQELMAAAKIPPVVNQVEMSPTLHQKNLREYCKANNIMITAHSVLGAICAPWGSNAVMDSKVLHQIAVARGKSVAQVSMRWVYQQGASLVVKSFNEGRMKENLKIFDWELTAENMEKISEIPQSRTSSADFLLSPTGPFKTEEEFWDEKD
UniProt A0QWT3, sequence (whole entry, looked up): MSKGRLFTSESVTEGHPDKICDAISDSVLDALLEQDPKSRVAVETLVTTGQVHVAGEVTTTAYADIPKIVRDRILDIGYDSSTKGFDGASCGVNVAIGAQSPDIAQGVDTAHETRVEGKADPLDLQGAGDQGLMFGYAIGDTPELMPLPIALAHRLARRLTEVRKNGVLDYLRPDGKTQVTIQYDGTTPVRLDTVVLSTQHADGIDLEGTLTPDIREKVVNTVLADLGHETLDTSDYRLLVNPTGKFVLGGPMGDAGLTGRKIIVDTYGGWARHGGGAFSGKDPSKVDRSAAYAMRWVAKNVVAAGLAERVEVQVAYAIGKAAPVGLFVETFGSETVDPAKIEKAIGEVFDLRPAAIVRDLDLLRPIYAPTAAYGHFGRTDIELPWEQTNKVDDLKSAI
UniProt P22303, sequence (whole entry, looked up): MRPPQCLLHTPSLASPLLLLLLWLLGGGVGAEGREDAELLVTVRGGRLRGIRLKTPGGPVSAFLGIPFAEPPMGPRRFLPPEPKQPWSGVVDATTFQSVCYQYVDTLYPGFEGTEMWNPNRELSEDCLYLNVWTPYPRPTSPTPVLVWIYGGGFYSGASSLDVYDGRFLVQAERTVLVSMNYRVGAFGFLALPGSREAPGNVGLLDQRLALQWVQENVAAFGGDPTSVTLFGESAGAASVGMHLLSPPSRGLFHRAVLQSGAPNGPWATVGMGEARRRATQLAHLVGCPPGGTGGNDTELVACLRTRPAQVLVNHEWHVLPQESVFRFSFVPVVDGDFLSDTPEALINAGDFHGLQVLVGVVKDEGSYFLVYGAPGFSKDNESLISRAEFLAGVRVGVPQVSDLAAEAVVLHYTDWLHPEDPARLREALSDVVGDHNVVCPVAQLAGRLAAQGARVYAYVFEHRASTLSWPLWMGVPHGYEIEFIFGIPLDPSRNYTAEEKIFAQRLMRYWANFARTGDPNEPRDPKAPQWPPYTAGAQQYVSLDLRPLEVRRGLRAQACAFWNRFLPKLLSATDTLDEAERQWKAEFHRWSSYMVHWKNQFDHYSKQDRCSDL

B1 (enzyme D233E)
Km (Nc1ncnc2c1ncn2[C@@H]1O[C@H](CO)[C@H]2OP(=O)(O)O[C@H]21; pH 7.5, 45 °C): 62000 µM

enzyme (Papaver somniferum, UniProt Q9SQ68)
Km (COc1ccc2c3c1O[C@H]1[C@@H](O)C=C[C@H]4[C@@H](C2)N(C)CC[C@@]341): 49.9 µM

B2 (enzyme N249W)
Km (CC(C)(COP(=O)(O)OP(=O)(O)OC[C@H]1O[C@@H](n2cnc3c(N)ncnc32)[C@H](O)[C@@H]1OP(=O)(O)O)[C@@H](O)C(=O)NCCC(=O)NCCSC(=O)CCCC(=O)O; pH 7.4, 37 °C): 2270 µM

ACHE (Homo sapiens, UniProt P22303)
Km (CC(=O)SCC[N+](C)(C)C; pH 7, 25 °C, apparent): 57 µM

B3 (protein F432W)
Km (CC(C)(COP(=O)(O)OP(=O)(O)OC[C@H]1O[C@@H](n2cnc3c(N)ncnc32)[C@H](O)[C@@H]1OP(=O)(O)O)[C@@H](O)C(=O)NCCC(=O)NCCSC(=O)Cc1cc(O)cc(O)c1; pH 7.5, 24 °C, with: O2): 1.1 µM

B4 (UGT84B1)
Km (O=C(O)Cc1ccccc1; pH 7.5, 30 °C): 32.3 µM

B5 (sbnA)
Km (N[C@@H](CCC(=O)O)C(=O)O; pH 8, 25 °C, with: OPS): 3200 µM

Cj1427c (Campylobacter jejuni, UniProt Q0P8I7)
Km (Nc1nc2c(ncn2[C@@H]2O[C@H](COP(=O)(O)OP(=O)(O)O[C@H]3O[C@H]([C@H](O)CO)[C@@H](O)[C@H](O)[C@@H]3O)[C@@H](O)[C@H]2O)c(=O)[nH]1; pH 7.4, 30 °C, apparent): 63 µM

DD-peptidase R39 (Actinomadura sp. R39, UniProt P39045)
Km (C[C@@H](NC(=O)c1ccccc1)C(=O)SCC(=O)O; pH 7.2, 30 °C, with: D-alanine 100 mM): 300 µM

B6 (enzyme)
Km (O=C1C[C@@H](c2ccc(O)cc2)Oc2cc(O)cc(O)c21; pH 7.9, 28 °C, apparent, not purified): 0.28 µM

azu N36H/Q28M/Q34H (Pseudomonas aeruginosa)
Km (O=NO; pH 6.35): 55000 µM

B7 (Lxyl-p1-1 V91S)
Km ([H][C@]12[C@H](OC(=O)c3ccccc3)[C@]3(O)C[C@H](OC(=O)[C@H](O)[C@@H](NC(=O)c4ccccc4)c4ccccc4)C(C)=C([C@@H](O)C(=O)[C@]1(C)[C@@H](O[C@@H]1OC[C@@H](O)[C@H](O)[C@H]1O)C[C@@]1([H])OC[C@@]21OC(C)=O)C3(C)C): 760 µM

B8 (nitrilase)
Km (Cc1cccc(C#N)c1; pH 7.5, 25 °C): 1850 µM

enzyme (Mycolicibacterium smegmatis, UniProt A0QWT3)
Km (Nc1ncnc2c1ncn2[C@@H]1O[C@H](COP(=O)(O)OP(=O)(O)OP(=O)(O)O)[C@@H](O)[C@H]1O): 76.2 µM

B9 (EutE V13D)
Km (CC=O; lysate; not purified, with: CoA, NAD+): 1150 µM

B10 (enzyme N488A)
Km (OC[C@H]1O[C@@](CO)(O[C@H]2O[C@H](CO)[C@@H](O)[C@H](O)[C@H]2O)[C@@H](O)[C@@H]1O; pH 5.5, 50 °C, apparent): 23000 µM
